Experimental data from different studies.
Numbered parts are unrelated; each lists some results of a single study.

Sample 1
Target: Ras GTPase-activating protein-binding protein 1, C-terminal RGG region (G3BP1, Homo sapiens, UniProt Q13283)
Chain of UniProt Q13283 (whole entry, looked up): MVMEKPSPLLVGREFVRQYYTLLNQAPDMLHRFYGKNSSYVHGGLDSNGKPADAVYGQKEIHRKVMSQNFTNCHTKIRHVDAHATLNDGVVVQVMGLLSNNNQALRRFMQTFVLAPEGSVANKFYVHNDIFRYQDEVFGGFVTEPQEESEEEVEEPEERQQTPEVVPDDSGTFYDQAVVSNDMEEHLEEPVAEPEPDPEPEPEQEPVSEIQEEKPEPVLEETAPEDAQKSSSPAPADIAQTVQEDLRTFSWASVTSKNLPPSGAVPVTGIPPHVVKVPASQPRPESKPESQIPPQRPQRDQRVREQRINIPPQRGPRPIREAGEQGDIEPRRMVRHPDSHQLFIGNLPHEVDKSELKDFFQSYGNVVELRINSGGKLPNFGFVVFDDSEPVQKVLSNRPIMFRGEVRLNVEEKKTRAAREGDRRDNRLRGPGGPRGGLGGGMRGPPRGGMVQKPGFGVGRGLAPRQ
Technique: RNA Bind-n-Seq
Form: RNA
Sample: in vitro
Concentration: 1 µM
Setting: whole 134-nt RNA, ends assumed
Added: 150 mM KCl
Relative to: input library
Direction: higher = stronger binding
Quantity: log2 enrichment
Shared flanks, not repeated: GGGAGUUCUACAGUCCGACGAUC … UGGAAUUCUCGGGUGUCAAGG
CUCAAGUCCUGUGCUACACAUCGUAUGUACCGAAUCGGUGGAAAGGAAAAAGGAAAGUAUUAUGUUACGCCGUUCGGAUCUGCACUUCCA: -1.28
ACCAUGCAGGUGGGCAUCUUUGGGAAGUGGGGCAAGGCGGGGAUAGGGAGGGGGGUAACACUUUGGGAACAGGUGGUCCCAGGUCGUUUC: -1.25
UCAAGUCCUGUGCUACACAUCGUAUGUACCGAAUCGGAGGAAAAAAAGGUUUGGAAAGUAUUAUGUUACGCCGUUCGGAUCUGCACUUCC: -1.58
GGUUUCUGGUGAGCUUCAUGGUUGACGCCCGGGGUGGUUCCAUGAGAGGAAGUCGCCACAACGGCCUGCGAGUGGUGAUCCCGCCACGGA: -2.13
CCUCAAGUCCUGUGCUACACAUCGUAUGUACCGAAUCGGUUGGGGUUGGUUGGAAAGUAUUAUGUUACGCCGUUCGGAUCUGCACUUCCA: -0.834
GUCCUGUGCUACACAUCGUAUGUACCGAAUCAAACCCCCAAACCCAAACCCCCCCAAAAAAGUAUUAUGUUACGCCGUUCGGAUCUGCAC: -0.235
UCAAGUCCUGUGCUACACAUCGUAUGUACCGAAUCGGGCCGGGGCCGGCCGGGGAAAGUAUUAUGUUACGCCGUUCGGAUCUGCACUUCC: -1.08
CUCAAGUCCUGUGCUACACAUCGUAUGUACCGAAUCGGGAAGGAAGGGGAAGGAAAGUAUUAUGUUACGCCGUUCGGAUCUGCACUUCCA: -1.28
CAAGUCCUGUGCUACACAUCGUAUGUACCGAAUCGGAAAAAGGUGGUUUUUUUGGAAAGUAUUAUGUUACGCCGUUCGGAUCUGCACUUC: -1.86
AAGUCCUGUGCUACACAUCGUAUGUACCGAAUCGGUGGUUUUUUUGGUUUUUUUGGAAAGUAUUAUGUUACGCCGUUCGGAUCUGCACUU: -1.89
AGUCCUGUGCUACACAUCGUAUGUACCGAAUCGGGGAAAAAGGGGAGGGGUUUGGGGAAAGUAUUAUGUUACGCCGUUCGGAUCUGCACU: 1.34
UUAAGGAAGGACACUGAGUCAUGCACAAGUCCUUGCCUUCUUGGUGCCCCUCGGAAAGCACAAGACCCCUCCUCUGCUGGGUGUGAUCAA: -0.662
GUCCUGUGCUACACAUCGUAUGUACCGAAUCGGGAAAAAAAGGGUGGGUUUUUUUGGGAAAGUAUUAUGUUACGCCGUUCGGAUCUGCAC: 0.294
CUGUGCUACACAUCGUAUGUACCGAAUCAAAUUUUUUUAAACCCCCCCAAAUUUUUUUAAAAAAGUAUUAUGUUACGCCGUUCGGAUCUG: -1.03

Sample 2
Target: Centromere-binding protein 1, full length, N-terminal tag (CBF1, Saccharomyces cerevisiae, UniProt P17106, residues 1-351)
Chain of UniProt P17106 (whole entry, looked up): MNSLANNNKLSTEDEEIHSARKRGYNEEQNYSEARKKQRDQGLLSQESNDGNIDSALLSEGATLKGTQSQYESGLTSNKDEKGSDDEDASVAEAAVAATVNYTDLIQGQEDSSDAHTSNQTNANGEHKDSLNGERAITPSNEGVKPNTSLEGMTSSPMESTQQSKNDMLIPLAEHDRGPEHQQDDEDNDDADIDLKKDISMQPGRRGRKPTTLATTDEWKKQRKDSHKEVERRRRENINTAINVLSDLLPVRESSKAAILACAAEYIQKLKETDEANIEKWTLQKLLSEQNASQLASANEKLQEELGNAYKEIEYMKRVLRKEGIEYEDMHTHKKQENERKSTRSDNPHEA
Technique: protein-binding microarray
Form: double-stranded DNA, one strand shown
Sample: in vitro
Concentration: 0.8 µM
Setting: whole 60-bp probe, no competitor
Direction: higher = stronger binding
Quantity: fluorescence intensity
Shared flanks, not repeated: … GTCTTGATTCGCTTGACGCTGCTG
GAAACGTACTTATAAAACGTGTAAAAACTTGCTTAG: 568 a.u.
GAATTTTTTCAGTCGCTCGTGGTCTATCGCCAATAG: 593 a.u.
CCTAACTACTATAATGACGTGGAATAGCTTCGTACA: 484 a.u.
CTAAGTTTCATTAGGAACGTGAGCAGAAAAATATTC: 1150 a.u.
GAACACTGTCTATTCCTCGTGGACCCTCTTTCGTAG: 563 a.u.
GAACCTTCTTCGTACACCGTGATTTTTCAGACGTAG: 633 a.u.
CTATATGTACGGAAAGATCACATGTATATATTTTTC: 3090 a.u.
GAAGTCGAAGGCAGAGACGTGGCACTGGCGATTTAG: 474 a.u.
GAATAATTAAGAGGTGGTGTCTTACACTCACCATAG: 486 a.u.
CTATCAGTCAAAAGACGCGTGCAACAATACACGTTC: 651 a.u.
GAAATATAAAGGGTACTCGTGCAGACGGACATCTAG: 609 a.u.
CTACTGACGCCTTCGCACGCGTCAATGAAAAGGTTC: 568 a.u.
TGTACGAAGCTATTATACGTGCCTATAGTAGTTAGG: 501 a.u.
GAATGCATAATGACGGACGTGACTATAAATTTCTAG: 961 a.u.
GAAGGGAGACACAAACACGAGGTAAGTCTCAAATAG: 580 a.u.
GAAATTGCGAGATATCACATGTGCGCTTTCCTTTAG: 1660 a.u.
CTACCTAGATGACAGCATCACCCGGACTGAATATTC: 507 a.u.
CTACGGCGGAAGGCACAGGAGATACCCCCACTATTC: 494 a.u.
GAACATCCGGTCAATCATCAGGGTAATACATATTAG: 504 a.u.
CCTAACTACTATACGCACGTATCATAGCTTCGTACA: 516 a.u.
CTACGACTGCGTGCGTGCGTGATTGGTAATGCATTC: 846 a.u.

Sample 3
Target: RING finger protein unkempt homolog, zinc fingers 1-6, GST-SBP tag (UNK, Homo sapiens, UniProt Q9C0B0, residues 30-357)
Technique: RNA Bind-n-Seq
Form: RNA
Sample: in vitro
Concentration: not given
Setting: RNA with constant flanks, human and mouse sites, ends assumed
Relative to: input RNA pool
Direction: higher = stronger binding
Quantity: bound/input enrichment
Shared flanks, not repeated: GGGAGUUCUACAGUCCGACGAUC … CAACAGAGGAUUGAGCAUCA
Target sequence (chain): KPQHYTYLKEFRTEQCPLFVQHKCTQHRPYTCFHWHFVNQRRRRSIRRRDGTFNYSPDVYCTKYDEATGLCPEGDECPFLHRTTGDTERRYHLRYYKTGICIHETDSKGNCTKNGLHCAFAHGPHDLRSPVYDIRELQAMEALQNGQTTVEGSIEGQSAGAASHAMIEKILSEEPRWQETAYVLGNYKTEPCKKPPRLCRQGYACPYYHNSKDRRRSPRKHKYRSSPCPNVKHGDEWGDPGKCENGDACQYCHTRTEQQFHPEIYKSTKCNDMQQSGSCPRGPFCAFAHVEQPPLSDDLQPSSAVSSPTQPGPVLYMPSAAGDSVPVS
UUUUAUGAACGACUGGCAGGCCAUGGCCCUAAACUAGGACCUGUCACCAGGAAGUAUCCUUUAGUUACCAGGUAUUUUACUUUCCCCUUUGGAGAAAUGGCCUUAUCCGCAGAGGAAGCC: 1.07 ratio
GAGCAGGAUGCACCACUGGCUGCUCGAGUUCCAGGGACAGCUCCAGGUCCUCUGAGCCCCUCACUUUCUGCGGGUGGGGGUCACUUUGUGUGCGUGGACUGUGGGAAGAGGUUCAGCUGG: 0.128 ratio
GGAGAGGAAUACUAAAGUUAAAACGUCACAAAGGUGCUGCUUUUACAGGGAAGCUUAUUCUGUUUUAAACAUUGAAAAGUUGUGGUCUGAUCAGUUAAUUUGUAUGUAGCAGUGUAUGCU: 2.17 ratio
ACCCAAGUUGGAGUCAUUCGAUGCCCAGUUUGCAGUCAAGAGUGUGCUGAGAGACACAUCAUAGACAACUUUUUUGUGAAGGACACCACUGAAGUUCCUAGUAGUACAGUAGAAAAGUCU: 7.12 ratio
UGUGGAGCCAGGAAGUGUAACAUAGUCUGCACCCAGCCCCGAAGAAUCUCGGCGGUGAGCUUAGCCACCAGGGUGUGCGAGGAGCUGGGCUGUGAGAGUGGCCCUGGAGGAAGGAAUUCU: 0.104 ratio
CUCACACCGUGUGUGGUCCAGGCUGUACCUUCAGAUCUUUAUGUGGUUCCAAAAUGUCCUUAGCUGCCCUGUGGCCUGAAGGAAUCCAGAGCCAGGGAGCAAUAUGCUGAUAGCAGGGUG: 0.0902 ratio
ACCAAACUCUUUCUGAUUUUGGCAAAAAAGUUCCCCCACGUGCAGACUGAUGUGCUUGUGCGAGUCAAGGGGCCCUUGCUGGCCGCCUGCUCUUCAGAGAGCCGUGAGCUCUGUUUUGCU: 0.189 ratio
CUGACUUUAUUUGGAAUUGCUGAUAAGAUCUCCUUUGACCUCAGCCUGGCUCGGGGCCUAGACUACUAUACAGGAGUGAUCUAUGAAGCAGUGCUGCUGCAGACCCCAACUCAGGCUGGG: 0.222 ratio
CGGGCGGCUUUCCAGAGCCUGCUGGACGCCCGGGCGGACGAGGCCGCGCUAGAUCACCCAUACUUGAAACAGAUCGACCCAGUGGUUUUAAAGCAUUGUCAUGCAGCAGCUGCAACUUGC: 0.149 ratio
GCUGCAUACAUAGAAAAUGCAAAACAGGUUGGCCGCCUUGAAAAUGCAAUCGGGUGGUAUCAUAGCCACCCUGGCUAUGGCUGCUGGCUUUCUGGGAUUGAUGUUAGUACUCAGAUGCUC: 0.196 ratio
UGGGGUGGGGUGGGGUGGGGGUGGGGGCCUUCCCUCUGCUUGCUCUGCAGAUGAGGGGAUAGCCUUCUCUAUCCUUUGCAGCUCUGACAAUUGCCCCGGACCUGCCCAUGCCGGCAUACC: 2.22 ratio

Sample 4
Target: Histone acetyltransferase KAT6A, winged helix 2, GST fusion (KAT6A, Homo sapiens, UniProt Q92794, residues 85-181)
Technique: protein binding microarray
Form: double-stranded DNA, one strand shown
Sample: in vitro
Concentration: not given
Setting: 8-mer, flanks averaged, mean of 2 arrays, mostly near background
Relative to: not given
Direction: higher = stronger binding
Quantity: E-score
Construct (chain): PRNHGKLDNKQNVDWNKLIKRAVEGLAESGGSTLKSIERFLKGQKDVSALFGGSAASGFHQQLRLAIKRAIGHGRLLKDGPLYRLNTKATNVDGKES
AGTCGTTA: -0.263
GAAGCAGA: 0.111
CATTCCCG: 0.0488
CAAAAGTG: -0.0771
GGTCTCTA: -0.0838
ACGCAAAA: 0.0438
ATTAGATG: 0.164
TCTATTAA: 0.0703
CCCAGCAG: 0.208
CTAAAGTA: -0.108
GTAGGTCA: -0.256
ATAATACC: 0.0105
CTAATGTC: -0.0985
ATGAAACA: 0.0417
ACGCATGG: -0.102
AACTGCAA: -0.0204
AATTGACT: 0.00248
CGATAACA: -0.108
GCTTATAC: -0.0614
ATCAGAGA: 0.00449
CTGTCTTC: 0.0683
AACGGCCA: -0.0543
ACGGACGT: -0.275
ATCTTGCG: -0.0816
ATCGGTGG: -0.14

Excerpt of the above (sample 2):
GAAGTCGAAGGCAGAGACGTGGCACTGGCGATTTAG: 474 a.u.
GAATAATTAAGAGGTGGTGTCTTACACTCACCATAG: 486 a.u.
CTATCAGTCAAAAGACGCGTGCAACAATACACGTTC: 651 a.u.
GAAATATAAAGGGTACTCGTGCAGACGGACATCTAG: 609 a.u.
CTACTGACGCCTTCGCACGCGTCAATGAAAAGGTTC: 568 a.u.
TGTACGAAGCTATTATACGTGCCTATAGTAGTTAGG: 501 a.u.
GAATGCATAATGACGGACGTGACTATAAATTTCTAG: 961 a.u.
GAAGGGAGACACAAACACGAGGTAAGTCTCAAATAG: 580 a.u.
GAAATTGCGAGATATCACATGTGCGCTTTCCTTTAG: 1660 a.u.
CTACCTAGATGACAGCATCACCCGGACTGAATATTC: 507 a.u.
